Assay results gathered from unrelated publications.
Numbered parts are unrelated; each lists some results of a single study.

Study 1
Target: Sal-like protein 4, full length isoform A (SALL4, Homo sapiens, UniProt Q9UJQ4, residues 1-1053)
Sequence of UniProt Q9UJQ4 (whole entry, looked up): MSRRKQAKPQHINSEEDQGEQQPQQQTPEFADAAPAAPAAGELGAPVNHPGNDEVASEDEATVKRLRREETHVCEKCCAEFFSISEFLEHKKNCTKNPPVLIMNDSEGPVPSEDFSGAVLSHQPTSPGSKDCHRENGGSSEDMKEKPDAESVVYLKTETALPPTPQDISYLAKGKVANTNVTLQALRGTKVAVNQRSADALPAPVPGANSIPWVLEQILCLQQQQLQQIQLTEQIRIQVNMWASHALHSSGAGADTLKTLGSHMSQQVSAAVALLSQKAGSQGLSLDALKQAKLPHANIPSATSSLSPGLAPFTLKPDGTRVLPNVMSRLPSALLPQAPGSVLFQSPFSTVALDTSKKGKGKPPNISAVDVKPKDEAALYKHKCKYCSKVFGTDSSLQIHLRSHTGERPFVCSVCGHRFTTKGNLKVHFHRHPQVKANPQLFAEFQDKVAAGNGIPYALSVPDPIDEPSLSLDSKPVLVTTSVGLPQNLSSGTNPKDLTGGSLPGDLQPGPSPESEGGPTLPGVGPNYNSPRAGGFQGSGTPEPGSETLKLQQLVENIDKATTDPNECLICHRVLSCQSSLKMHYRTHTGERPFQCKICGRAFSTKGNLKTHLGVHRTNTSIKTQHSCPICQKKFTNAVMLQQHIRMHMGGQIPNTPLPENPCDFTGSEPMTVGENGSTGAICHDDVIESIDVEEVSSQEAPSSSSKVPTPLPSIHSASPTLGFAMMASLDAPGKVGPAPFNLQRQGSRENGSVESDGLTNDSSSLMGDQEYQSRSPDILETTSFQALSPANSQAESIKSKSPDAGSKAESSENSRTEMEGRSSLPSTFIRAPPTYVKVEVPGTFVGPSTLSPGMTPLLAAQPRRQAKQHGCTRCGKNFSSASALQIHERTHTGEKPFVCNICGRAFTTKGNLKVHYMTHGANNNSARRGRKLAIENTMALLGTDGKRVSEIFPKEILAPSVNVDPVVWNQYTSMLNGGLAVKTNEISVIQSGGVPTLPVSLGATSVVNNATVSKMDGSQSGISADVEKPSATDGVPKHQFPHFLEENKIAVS
Technique: universal PBM
Form: double-stranded DNA, one strand shown
Medium: in vitro
Concentration: 600 nM
Notes: 8-mer, flanks averaged, mean of replicates
Direction: higher = stronger binding
Measurement: E-score
GATAAACC: 0.0748
TCACCAAA: 0.211
AATCTTTC: 0.146
CCGCGGCC: -0.407
GCCGAATA: 0.0273
AGAACGCG: -0.139
ATCACATC: 0.0429
CTGGGGTA: -0.163

Study 2
Target: RNA binding protein fox-1 homolog 2, RRM domain, GST-SBP tag (RBFOX2, Homo sapiens, UniProt O43251-10, residues 100-194)
Technique: RNA Bind-n-Seq
Form: RNA
Medium: in vitro
Concentration: 365 nM
Notes: natural RNA segment, single round, ends assumed
Reference: no-protein control
Direction: higher = stronger binding
Measurement: RBNS enrichment (R)
Construct (chain): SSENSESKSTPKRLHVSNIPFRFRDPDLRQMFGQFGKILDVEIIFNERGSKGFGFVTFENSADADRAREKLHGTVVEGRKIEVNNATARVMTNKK
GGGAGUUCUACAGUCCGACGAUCCCCCAGUAAACACUAAGAUGGACCUCAAGCCGACUGGUUCCUUGUACUUGAAGUACUUGCCUUUUUUGUUUCCUCAGUUUUAUGUUCUUGCAUUAUAAUUUUAUCCUAACUGGAAUUCUCGGGUGCCAA: 1.29
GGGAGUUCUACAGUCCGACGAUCAUCCUUAUGCCAAUUCAGCUACUAAUCGGUCAUUCAUAAAUGGUGAUUAAAAUGAUCAGGUAAUUUUUAAUUGAAAAUCAUGGUGUGAAAUAUAUCUACCCAAAGAGGUAUGGAAUUCUCGGGUGCCAA: 1.04
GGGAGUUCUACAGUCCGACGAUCCAUCUUUUUCCUAGACCAUGUUUCUGUCUUACUCUUAAACCUGGUAACACUUGAUUUGCCUUCUAUAACCUAUUUAUUUCAAGUGUUCAUAUUUGAAUUUCUUUGGGAAGUGGAAUUCUCGGGUGCCAA: 0.334
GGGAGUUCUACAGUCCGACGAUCGUCCAUUCCAUUGCUUGUUUCUCAAAGCAGCGAGAUACCUGUCUGAGCUGCAGGAGGCAGGGGCAGCCGGGACAUGGGCACUUCAGGGCCGAGCCUCUGUGUUGCCUUCUUGGAAUUCUCGGGUGCCAA: 0.525
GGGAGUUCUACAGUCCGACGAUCUUCUGGCCAUCCAUGCCCGCACCCACCUGCCAGGCCGCACGUACAGCUGCCCCGAUUGUGGCAAGACCUUCAACCGCUCCUCUACACUCAUUCAGCACCAGCGUUCCCACUGGAAUUCUCGGGUGCCAA: 0.774
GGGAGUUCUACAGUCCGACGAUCAAGAACUCUUCCCUUCCCUGGUGAGUAUUUCCAUUAUUCCGUUAAGGUUUAAUAUGCAUUCAGAUUACUUUUACUAAAUAGGACACCAUAAAGCUUUUGUUAUAUAUUAAUGGAAUUCUCGGGUGCCAA: 2.27
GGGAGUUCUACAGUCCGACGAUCGAGAGAGGGGAAGGAAAUGGAACAAGUUGUGUUUGUGUUAGCAUGUGGGUGAUGUAAACUUCAAAUUGGGAGAUGUUCCGACCCCCACUCCCAUAUAAGCAUUCAAUCAGUGGAAUUCUCGGGUGCCAA: 20.3
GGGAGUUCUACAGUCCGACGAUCAACACUGUUGUGGUAUGUAUGCUACCUUGAUUAUAGGACCCCCUAAAUGUGACUAUAGUCAUCUUAAUGGGCAUCUUGUCCACUGUGCUUCUUAUGUAUUAUGAAAGUGAUGGAAUUCUCGGGUGCCAA: 0.666

Study 3
Target: Protein max, full length (MAX, Homo sapiens, UniProt P61244-2, residues 1-151)
Technique: protein-binding microarray
Form: double-stranded DNA, one strand shown
Medium: in vitro
Concentration: not given
Notes: k-mer, scored over probes, only values ≥0.25
Direction: higher = stronger binding
Measurement: E-score
ACGCGACT: 0.295
CGTGACAG: 0.374
CATATGGG: 0.342
ACACCTGC: 0.375
ATGTGTGA: 0.347
CATGCATA: 0.321
CGCATGCG: 0.424
GCATGTGA: 0.471

Other studies, line by line
O=S(=O)(c1ccc(Cl)s1)N1CCNCC1 — remaining compound (human, microsomes or S9; 2 µM, 0.5 h): 99.2%

Some of these lines once more (study 2):
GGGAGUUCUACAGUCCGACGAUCAACACUGUUGUGGUAUGUAUGCUACCUUGAUUAUAGGACCCCCUAAAUGUGACUAUAGUCAUCUUAAUGGGCAUCUUGUCCACUGUGCUUCUUAUGUAUUAUGAAAGUGAUGGAAUUCUCGGGUGCCAA: 0.666
